Experimental data pooled from the literature.
Compare with care: the assays were run in different laboratories. Numbers after ± are the reported error.
Tumor necrosis factor receptor superfamily member 1A extracellular domain: Tumor necrosis factor receptor superfamily member 1A, extracellular domain (Homo sapiens, UniProt P19438)
UniProt P19438, sequence (whole entry, looked up): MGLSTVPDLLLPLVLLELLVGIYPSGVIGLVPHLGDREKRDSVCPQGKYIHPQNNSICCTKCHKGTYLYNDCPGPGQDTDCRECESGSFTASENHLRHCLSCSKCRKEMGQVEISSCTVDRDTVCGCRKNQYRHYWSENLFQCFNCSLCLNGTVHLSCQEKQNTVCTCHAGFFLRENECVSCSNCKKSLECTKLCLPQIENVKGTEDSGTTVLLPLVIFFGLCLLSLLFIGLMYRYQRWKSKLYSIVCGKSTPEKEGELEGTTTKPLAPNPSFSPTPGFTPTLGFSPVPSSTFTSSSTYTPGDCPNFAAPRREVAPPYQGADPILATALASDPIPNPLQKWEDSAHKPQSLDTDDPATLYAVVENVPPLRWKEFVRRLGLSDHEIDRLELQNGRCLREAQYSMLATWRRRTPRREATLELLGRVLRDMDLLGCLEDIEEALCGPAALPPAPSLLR
USP5 ZnF-UBD domain: Ubiquitin carboxyl-terminal hydrolase 5, ZnF-UBD domain (USP5, Homo sapiens, UniProt P45974)
UniProt P45974, sequence (whole entry, looked up): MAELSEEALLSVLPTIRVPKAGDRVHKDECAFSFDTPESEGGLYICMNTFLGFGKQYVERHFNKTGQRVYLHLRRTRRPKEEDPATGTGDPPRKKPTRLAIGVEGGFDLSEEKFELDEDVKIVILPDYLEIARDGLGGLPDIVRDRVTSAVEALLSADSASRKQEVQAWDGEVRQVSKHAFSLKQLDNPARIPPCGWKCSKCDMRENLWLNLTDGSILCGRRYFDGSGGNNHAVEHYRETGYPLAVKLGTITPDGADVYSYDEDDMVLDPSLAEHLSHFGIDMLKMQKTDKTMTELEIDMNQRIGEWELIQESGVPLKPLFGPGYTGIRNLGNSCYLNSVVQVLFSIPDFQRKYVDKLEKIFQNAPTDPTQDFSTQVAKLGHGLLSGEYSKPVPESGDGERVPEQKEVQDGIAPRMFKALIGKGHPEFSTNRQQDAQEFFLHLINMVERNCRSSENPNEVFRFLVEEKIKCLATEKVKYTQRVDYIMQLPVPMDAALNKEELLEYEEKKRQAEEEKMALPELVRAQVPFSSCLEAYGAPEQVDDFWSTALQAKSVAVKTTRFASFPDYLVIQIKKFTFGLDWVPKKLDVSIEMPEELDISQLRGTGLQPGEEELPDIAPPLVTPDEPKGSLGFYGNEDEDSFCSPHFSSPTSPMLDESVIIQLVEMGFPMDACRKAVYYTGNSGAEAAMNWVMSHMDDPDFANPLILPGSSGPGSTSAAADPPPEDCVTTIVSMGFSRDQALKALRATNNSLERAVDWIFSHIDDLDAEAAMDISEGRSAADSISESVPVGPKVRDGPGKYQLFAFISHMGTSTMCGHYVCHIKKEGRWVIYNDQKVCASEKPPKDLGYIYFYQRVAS
GATD3: Glutamine amidotransferase-like class 1 domain-containing protein 3, mitochondrial (GATD3, Homo sapiens, UniProt P0DPI2)
UniProt P0DPI2, sequence (whole entry, looked up): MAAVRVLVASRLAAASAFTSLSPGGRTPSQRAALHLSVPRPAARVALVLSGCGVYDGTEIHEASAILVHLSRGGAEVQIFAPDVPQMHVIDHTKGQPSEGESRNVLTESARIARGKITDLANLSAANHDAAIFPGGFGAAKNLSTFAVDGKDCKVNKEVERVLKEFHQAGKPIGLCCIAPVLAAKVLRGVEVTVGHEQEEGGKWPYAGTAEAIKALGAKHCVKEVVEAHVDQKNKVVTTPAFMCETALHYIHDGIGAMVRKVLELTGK
HDAC5: Histone deacetylase 5 (HDAC5, Homo sapiens, UniProt Q9UQL6)
UniProt Q9UQL6, sequence (whole entry, looked up): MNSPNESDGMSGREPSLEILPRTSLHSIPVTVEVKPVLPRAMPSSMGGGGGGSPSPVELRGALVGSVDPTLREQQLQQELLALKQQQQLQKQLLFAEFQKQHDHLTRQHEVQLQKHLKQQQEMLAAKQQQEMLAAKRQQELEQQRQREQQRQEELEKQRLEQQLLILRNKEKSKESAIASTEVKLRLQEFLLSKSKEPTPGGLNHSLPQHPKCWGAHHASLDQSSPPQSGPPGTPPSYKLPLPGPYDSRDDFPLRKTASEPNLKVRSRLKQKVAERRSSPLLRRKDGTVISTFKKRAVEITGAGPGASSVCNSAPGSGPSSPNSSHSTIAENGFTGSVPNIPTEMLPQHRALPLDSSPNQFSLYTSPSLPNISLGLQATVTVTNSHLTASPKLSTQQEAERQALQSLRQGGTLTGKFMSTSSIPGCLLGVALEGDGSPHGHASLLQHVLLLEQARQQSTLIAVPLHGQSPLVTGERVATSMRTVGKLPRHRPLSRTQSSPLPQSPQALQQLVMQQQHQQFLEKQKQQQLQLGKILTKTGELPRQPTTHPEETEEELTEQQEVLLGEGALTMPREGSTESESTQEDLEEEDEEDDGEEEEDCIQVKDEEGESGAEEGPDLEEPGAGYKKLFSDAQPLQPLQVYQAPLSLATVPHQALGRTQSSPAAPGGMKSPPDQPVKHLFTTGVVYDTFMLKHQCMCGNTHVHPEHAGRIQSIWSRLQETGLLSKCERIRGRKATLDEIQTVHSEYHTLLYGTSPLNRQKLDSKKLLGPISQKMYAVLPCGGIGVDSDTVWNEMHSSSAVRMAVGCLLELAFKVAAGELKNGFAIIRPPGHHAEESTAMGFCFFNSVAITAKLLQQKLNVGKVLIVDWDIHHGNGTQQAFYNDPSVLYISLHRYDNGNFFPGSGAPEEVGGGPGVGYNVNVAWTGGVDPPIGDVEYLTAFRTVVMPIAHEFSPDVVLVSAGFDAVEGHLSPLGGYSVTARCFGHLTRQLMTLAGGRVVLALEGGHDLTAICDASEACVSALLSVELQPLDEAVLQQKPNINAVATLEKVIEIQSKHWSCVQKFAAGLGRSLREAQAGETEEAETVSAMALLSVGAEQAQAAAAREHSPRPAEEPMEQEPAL
UniProt P18357, sequence (whole entry, looked up): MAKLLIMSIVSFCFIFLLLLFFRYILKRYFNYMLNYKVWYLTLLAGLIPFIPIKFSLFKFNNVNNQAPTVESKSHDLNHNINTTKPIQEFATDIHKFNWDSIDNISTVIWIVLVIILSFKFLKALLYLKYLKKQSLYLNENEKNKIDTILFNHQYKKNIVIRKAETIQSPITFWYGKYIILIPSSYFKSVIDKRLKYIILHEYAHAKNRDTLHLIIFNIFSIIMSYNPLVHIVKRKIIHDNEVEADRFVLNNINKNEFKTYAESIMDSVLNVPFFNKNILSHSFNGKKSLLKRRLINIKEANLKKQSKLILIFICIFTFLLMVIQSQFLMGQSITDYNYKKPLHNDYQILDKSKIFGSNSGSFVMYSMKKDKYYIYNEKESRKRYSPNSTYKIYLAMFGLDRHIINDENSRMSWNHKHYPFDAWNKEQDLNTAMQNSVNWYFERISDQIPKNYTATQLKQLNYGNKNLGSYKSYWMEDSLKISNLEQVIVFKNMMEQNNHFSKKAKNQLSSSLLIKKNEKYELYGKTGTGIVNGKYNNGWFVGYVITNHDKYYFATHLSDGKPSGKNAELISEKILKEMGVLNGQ
UniProt Q16774, sequence (whole entry, unmodified, looked up): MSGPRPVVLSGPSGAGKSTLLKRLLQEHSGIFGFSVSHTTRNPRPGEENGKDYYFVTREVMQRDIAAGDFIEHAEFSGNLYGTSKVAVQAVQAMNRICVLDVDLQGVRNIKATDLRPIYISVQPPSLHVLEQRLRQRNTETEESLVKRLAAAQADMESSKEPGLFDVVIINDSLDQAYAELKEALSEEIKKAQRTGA
UniProt O75116, sequence (whole entry, looked up): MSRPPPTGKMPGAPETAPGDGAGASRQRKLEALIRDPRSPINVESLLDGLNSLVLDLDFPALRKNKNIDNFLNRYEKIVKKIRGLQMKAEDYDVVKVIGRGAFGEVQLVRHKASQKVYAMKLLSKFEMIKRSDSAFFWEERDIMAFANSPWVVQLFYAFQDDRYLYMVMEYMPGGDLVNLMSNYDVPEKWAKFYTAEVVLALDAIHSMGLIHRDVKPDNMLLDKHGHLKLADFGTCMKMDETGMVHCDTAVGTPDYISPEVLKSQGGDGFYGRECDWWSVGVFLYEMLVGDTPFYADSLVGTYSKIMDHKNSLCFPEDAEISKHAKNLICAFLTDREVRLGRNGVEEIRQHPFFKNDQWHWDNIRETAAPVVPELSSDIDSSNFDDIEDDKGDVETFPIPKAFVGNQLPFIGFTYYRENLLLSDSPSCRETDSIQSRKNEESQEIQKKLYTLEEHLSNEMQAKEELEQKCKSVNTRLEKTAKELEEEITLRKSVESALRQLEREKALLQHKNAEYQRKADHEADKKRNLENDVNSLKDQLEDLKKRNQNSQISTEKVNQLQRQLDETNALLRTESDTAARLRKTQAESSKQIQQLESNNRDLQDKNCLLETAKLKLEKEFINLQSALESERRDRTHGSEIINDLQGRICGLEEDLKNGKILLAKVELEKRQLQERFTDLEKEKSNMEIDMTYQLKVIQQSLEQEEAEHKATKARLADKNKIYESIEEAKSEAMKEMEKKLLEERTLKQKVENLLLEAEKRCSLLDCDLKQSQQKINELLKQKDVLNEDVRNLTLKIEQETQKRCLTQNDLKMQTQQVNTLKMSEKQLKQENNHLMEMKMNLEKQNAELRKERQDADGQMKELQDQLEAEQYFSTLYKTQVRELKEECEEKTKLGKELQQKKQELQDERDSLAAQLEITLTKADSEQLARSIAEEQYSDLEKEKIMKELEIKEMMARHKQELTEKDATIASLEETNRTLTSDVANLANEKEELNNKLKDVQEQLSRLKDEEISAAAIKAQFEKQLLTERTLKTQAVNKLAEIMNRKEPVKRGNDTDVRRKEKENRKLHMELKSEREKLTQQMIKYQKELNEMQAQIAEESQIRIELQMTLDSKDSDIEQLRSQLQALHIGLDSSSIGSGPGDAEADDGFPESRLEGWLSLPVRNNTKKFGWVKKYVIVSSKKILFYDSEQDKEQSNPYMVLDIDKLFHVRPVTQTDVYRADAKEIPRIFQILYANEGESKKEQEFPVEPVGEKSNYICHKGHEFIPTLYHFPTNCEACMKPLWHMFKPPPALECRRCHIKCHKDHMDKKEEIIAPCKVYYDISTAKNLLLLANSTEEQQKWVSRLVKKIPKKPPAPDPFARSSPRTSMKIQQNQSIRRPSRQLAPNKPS
UniProt Q9KCC6, sequence (whole entry, looked up): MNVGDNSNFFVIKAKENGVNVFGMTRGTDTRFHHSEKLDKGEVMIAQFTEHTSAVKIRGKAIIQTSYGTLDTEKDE

| SMILES | tested on | assay | test system | conditions | how to read | measurement | value |
| --- | --- | --- | --- | --- | --- | --- | --- |
| C=CC(=O)N1CCN(c2nc(OC[C@@H]3CCCN3C)nc3c(F)c(-c4nc(N)cc(C)c4C(F)(F)F)c(Cl)cc23)[C@@H](C)C1 | GTPase KRas, GDP-bound (KRAS, Homo sapiens, UniProt P01116, Q61R) | binding, surface plasmon resonance |  |  |  | Kd | 0.563 ± 0.043 µM |
| O=C(O)c1cc(-c2ccccc2)ccn1 | Tumor necrosis factor receptor superfamily member 1A extracellular domain | binding, SPR |  | irregular sensorgram |  | Kd | 600 ± 30 µM |
| O=C(O)CCOc1ccccc1 | USP5 ZnF-UBD domain |  |  |  |  | Kd | > 1000 µM |
| N[C@@H](Cc1c[nH]c2ccccc12)C(=O)O | Transcription attenuation protein MtrB (mtrB, Halalkalibacterium halodurans, UniProt Q9KCC6) | binding, circular dichroism | Bacillus halodurans | pH 8 |  | Kd | 14.6 ± 1.8 µM |
| O=C(O)CCc1ccccc1 | USP5 ZnF-UBD domain |  |  |  |  | Kd | > 1000 µM |
| Nc1nc2c(ncn2[C@@H]2O[C@H](COP(=O)(O)O)[C@@H](O)[C@H]2O)c(=O)[nH]1 | GUK1 (Homo sapiens, UniProt Q16774, R44A) | binding, ITC |  | 25 °C, added: GMP |  | Kd | 270 ± 30 µM |
| O=C(O)c1cc(-c2ccccc2F)ccn1 | Tumor necrosis factor receptor superfamily member 1A extracellular domain | binding, SPR |  | irregular sensorgram |  | Kd | 590 ± 60 µM |
| N[C@@H](CC(=O)O)C(=O)O | Methyl-accepting chemotaxis protein, ligand-binding domain (Pectobacterium atrosepticum, UniProt Q6D6I9) | isothermal titration calorimetry |  | pH 6.0, 25 °C, ligand-binding domain |  | Kd | 370 ± 82 µM |
| O=C(NO)c1cnc(NC2(c3ccccc3)CC2)nc1 | GATD3 | inhibitor, competition pulldown | SW620 and MV4-11 lysate | 1 h |  | Kd | > 30.2 µM |
| Cn1cc(-c2ccc(-c3cncc(Cl)c3N3CCC4(CCNC4=O)CC3)cc2)cn1 | COLO 205 | gene expression, microarray, refers to: EDN1 mRNA |  | concentration not given, 6 h | relative to: untreated cells | log2 fold change | 1.53 |
| CN(C)Cc1c(C(=O)NCCOc2ccc(C(=O)NO)cc2)oc2ccccc12 | HDAC5 | inhibitor, competition pulldown | SW620 and MV4-11 lysate | 1 h |  | Kd | > 30.2 µM |
| C=CC1=C(C)/C(=C/c2[nH]c(Cc3[nH]c(/C=C4\NC(=O)C(C)=C4C=C)c(C)c3CCC(=O)O)c(CCC(=O)O)c2C)NC1=O | ROCK2 (Homo sapiens, UniProt O75116) | binding, microscale thermophoresis | HEK293T cell lysate |  |  | Kd | 0.136 ± 0.0765 µM |
| NC(=O)c1cccc(-c2ccc(C(=O)O)nc2)c1 | Tumor necrosis factor receptor superfamily member 1A extracellular domain | SPR OneStep |  | immobilized target |  | Kd | 920 ± 10 µM |
| CCN(CC)Cc1ccc2cc(COC(=O)Nc3ccc(C(=O)NO)cc3)ccc2c1 | GATD3 | inhibitor, competition pulldown | SW620 and MV4-11 lysate | 1 h |  | Kd | > 30.2 µM |
| NC(=O)c1cc(-n2c(CCC(=O)O)nc3ccccc32)cs1 | USP5 ZnF-UBD domain |  |  |  |  | Kd | > 1000 µM |
| O=C(Nc1nnc(-c2ccncc2)s1)C(F)(F)Br | MAPK8 (Homo sapiens, UniProt P45983) |  |  |  |  | Kd | 12.7 µM |
| CS(=O)(=O)NC(=O)c1cc(-c2ccc(N)cc2)ccn1 | Tumor necrosis factor receptor superfamily member 1A extracellular domain | SPR OneStep |  | immobilized target |  | Kd | 978 ± 112 µM |
| O=C(CCCCCCC(=O)Nc1ccccc1)NO | GATD3 | inhibitor, competition pulldown | SW620 and MV4-11 lysate | 1 h |  | Kd | 1.53 µM |
| O=C(O)CCc1nc2ncccn2n1 | USP5 ZnF-UBD domain |  |  |  |  | Kd | > 1000 µM |
| NCCc1c[nH]c2ccc(O)cc12 | 5-hydroxytryptamine receptor 1E (5HT1E, Cavia porcellus, UniProt Q6VB83) | binding, radioligand, saturation binding | AV12 cell membranes | pH 7.4, 37 °C |  | Kd | 0.00646 ± 0.0006 µM |
| Nc1ncnc2c1ncn2[C@@H]1O[C@H](COP(=O)(O)OP(=O)(O)O)[C@@H](O)[C@H]1O | CKMT1A (Homo sapiens, UniProt P12532, E265Q) | microscale thermophoresis |  | pH 8.5, E227Q mutant, added: creatine 10 mM |  | Kd | 5 ± 2 µM |
| CO[C@H]1O[C@H](COS(=O)(=O)O)[C@@H](O[C@@H]2O[C@@H](C(=O)O)[C@@H](O[C@H]3O[C@H](COS(=O)(=O)O)[C@@H](O[C@@H]4O[C@H](C(=O)O)[C@@H](O[C@H]5O[C@H](COS(=O)(=O)O)[C@@H](O)[C@H](O)[C@H]5NS(=O)(=O)O)[C@H](O)[C@H]4O)[C@H](OS(=O)(=O)O)[C@H]3NS(=O)(=O)O)[C@H](O)[C@H]2OS(=O)(=O)O)[C@H](O)[C@H]1NS(=O)(=O)O | Beta-2-glycoprotein 1, domain V (APOH, Homo sapiens, UniProt P02749, V266L) | tryptophan fluorescence titration |  | pH 7.0, 100 mM NaCl |  | Kd | 2 µM |

| SMILES | tested on | assay | test system | conditions | how to read | measurement | value |
| --- | --- | --- | --- | --- | --- | --- | --- |
| OC[C@H]1O[C@@](CO)(OC[C@@]2(OC[C@@]3(O[C@H]4O[C@H](CO)[C@@H](O)[C@H](O)[C@H]4O)O[C@H](CO)[C@@H](O)[C@@H]3O)O[C@H](CO)[C@@H](O)[C@@H]2O)[C@@H](O)[C@@H]1O | uncharacterized protein (Streptococcus pneumoniae, UniProt A0A0H2ZPW1) | binder |  |  |  | Kd | 0.6 µM |
| O=C(O)CCC(=O)Nc1ccccc1 | USP5 ZnF-UBD domain |  |  |  |  | Kd | > 1000 µM |
| CC[C@H](C)[C@H](NC(=O)[C@H](CCC(=O)O)NC(=O)[C@@H](N)CC(C)C)C(=O)N[C@@H](CCC(=O)O)C(=O)N1CCC[C@H]1C(=O)N[C@@H](CCCNC(=N)N)C(=O)N[C@@H](CC(N)=O)C(=O)N1CCC[C@H]1C(=O)N[C@@H](CCCCN)C(=O)N1CCC[C@H]1C(=O)O | GRB2 (Homo sapiens, UniProt P62993) | binding, NMR titration, refers to: nSH3 domain |  | added: SOS1 proline-rich peptide |  | Kd | 1250 µM |
| Cc1[nH]c2ccccc2c1CCNCc1ccc(/C=C/C(=O)NO)cc1 | GATD3 | inhibitor, competition pulldown | SW620 and MV4-11 lysate | 1 h |  | Kd | > 30.2 µM |
| O=C(O)CCc1nc2ccccc2c2nc(Cc3ccccc3)nn12 | USP5 ZnF-UBD domain |  |  |  |  | Kd | 847 µM |
| Cn1cc(-c2ccc(S(=O)(=O)n3ccc(/C=C/C(=O)Nc4ccccc4N)c3)cc2)cn1 | HDAC5 | inhibitor, competition pulldown | SW620 and MV4-11 lysate | 1 h |  | Kd | > 30.2 µM |
| NS(=O)(=O)c1ccccc1 | CA9 (Homo sapiens, UniProt Q16790) | binding |  | pH 7 |  | Kd | 0.5 µM |
| OB(O)CSc1nc2ccccc2n1Cc1ccc(C(F)(F)F)cc1C(F)(F)F | Regulatory protein BlaR1, sensor domain (blaR1, Staphylococcus aureus, UniProt P18357) | binding, SPR two-state model |  |  |  | Kd | 3.8 ± 0.3 µM |
| Cc1sc2ncn(CC(=O)O)c(=O)c2c1C | USP5 ZnF-UBD domain |  |  |  |  | Kd | 238 µM |
| CCCCOc1ccc(CC(=O)NO)cc1 | HDAC5 | inhibitor, competition pulldown | SW620 and MV4-11 lysate | 1 h |  | Kd | > 30.2 µM |
| O=C(O)c1cc(-c2ccc3c(c2)OCO3)ccn1 | Tumor necrosis factor receptor superfamily member 1A extracellular domain | SPR OneStep |  | immobilized target |  | Kd | 1360 ± 10 µM |
| O=C(/C=C/c1ccc(CN(CCO)CCc2c[nH]c3ccccc23)cc1)NO | GATD3 | inhibitor, competition pulldown | SW620 and MV4-11 lysate | 1 h |  | Kd | > 30.2 µM |
| C[C@@H](N[C@@H](CCCN=C(N)N)C(=O)O)C(=O)O | uncharacterized protein (Pelagibacter ubique, UniProt Q4FLC2) | isothermal titration calorimetry | Candidatus Pelagibacter ubique | direct titration |  | Kd | 0.232 ± 0.051 µM |
| Cc1cccc(NC(=O)Cn2cc(CO)c3ccccc32)c1 | Sodium channel protein type 8 subunit alpha, C-terminal domain (SCN8A, Homo sapiens, UniProt Q9UQD0) | binding |  |  |  | Kd | 9.83 ± 0.29 µM |
| O=[N+]([O-])c1ccc2c(N=Nc3ccc4ccccc4c3O)c(O)cc(S(=O)(=O)O)c2c1 | Diphosphomevalonate decarboxylase (Staphylococcus epidermidis, UniProt Q9FD73) | binding, tryptophan fluorescence quenching |  | pH 8.3, 25 °C |  | Kd | 1.8 ± 0.2 µM |
| O=C(O)c1cc(-c2ccc3ncsc3c2)ccn1 | Tumor necrosis factor receptor superfamily member 1A extracellular domain | binding, SPR OneStep |  |  |  | Kd | 710 ± 76 µM |
| Cn1cc2c3c(c[nH]c3c1=O)CN(c1ncc(F)cc1F)c1cc(C(=O)O)c(CS(C)(=O)=O)cc1-2 | elongin C (Spodoptera frugiperda, UniProt A0A2H1WSX9+A0A9R0EEM2) | ternary complex formation, degrader, AlphaLISA |  |  |  | Kd | > 0.5 µM |
| Cc1c[nH]c2cc(-c3ccnc(C(=O)O)c3)ccc12 | Tumor necrosis factor receptor superfamily member 1A extracellular domain | binding, SPR OneStep |  |  |  | Kd | 372 ± 69 µM |
| O=C(C[C@@H](C(F)F)n1ccc(F)n1)N1CCC(O)(Cn2cnc3c(cnn3-c3ccc(F)cc3)c2=O)CC1 | USP7 (Homo sapiens, UniProt Q93009) | isothermal titration calorimetry |  |  |  | Kd | 0.054 ± 0.004 µM |
| O=C(O)CC1Oc2ccccc2NC1=O (stereo not shown) | USP5 ZnF-UBD domain |  |  |  |  | Kd | > 1000 µM |
| O=C(O)c1cc(-c2ccc3c(c2)OCCO3)ccn1 | Tumor necrosis factor receptor superfamily member 1A extracellular domain | SPR OneStep |  | immobilized target |  | Kd | 1423 ± 1 µM |

Some of these lines once more:
| SMILES | tested on | assay | test system | conditions | how to read | measurement | value |
| --- | --- | --- | --- | --- | --- | --- | --- |
| O=C(C[C@@H](C(F)F)n1ccc(F)n1)N1CCC(O)(Cn2cnc3c(cnn3-c3ccc(F)cc3)c2=O)CC1 | USP7 (Homo sapiens, UniProt Q93009) | isothermal titration calorimetry |  |  |  | Kd | 0.054 ± 0.004 µM |
| Cn1cc(-c2ccc(S(=O)(=O)n3ccc(/C=C/C(=O)Nc4ccccc4N)c3)cc2)cn1 | HDAC5 | inhibitor, competition pulldown | SW620 and MV4-11 lysate | 1 h |  | Kd | > 30.2 µM |
| C=CC(=O)N1CCN(c2nc(OC[C@@H]3CCCN3C)nc3c(F)c(-c4nc(N)cc(C)c4C(F)(F)F)c(Cl)cc23)[C@@H](C)C1 | GTPase KRas, GDP-bound (KRAS, Homo sapiens, UniProt P01116, Q61R) | binding, surface plasmon resonance |  |  |  | Kd | 0.563 ± 0.043 µM |
